Measurements pooled from the literature.
A part holds a random share of what one study measured. Changes are numbered by the printed parent chain.

Series 1
Target: Interferon regulatory factor 5, full length, phosphomimetic (IRF5, Homo sapiens, UniProt Q13568-2, residues 1-514, K96S/S451D/S453D/S456D/S462D)
Technique: protein-binding microarray
Molecule type: double-stranded DNA, one strand shown
Medium: in vitro
Tested at: 250 nM
Setting: 60-bp whole probe
Added: salmon DNA 0.4 mg/ml
Baseline: random background probes
Direction: higher = stronger binding
Measurement: log fluorescence
Constant ends, left off below: GCCTAGCAC … GTCTTGATTCGCTTGACGCTGCTG
GACGAACTGGACACTGGGGACGTGCTA: -0.376 z-score
GACGGTCTCGGACTGGGCACGTGCTAG: -0.384 z-score
TTGGGTTTCGGTCTCGGTTAGTGCTAG: 9.99 z-score
TTAGGAATCGGACTGGGTTAGTGCTAG: 0.0328 z-score
GACGGTTACGGGACTGGGGACGTGCTA: -0.222 z-score
TTAGGAATCGGTTTCGGTTAGTGCTAG: 9.87 z-score
TTAGGTATCCTTTGCCTTTAGTGCTAG: -0.184 z-score
GACGGTCTCGGGTTTCGGGACGTGCTA: 1.71 z-score
TTAGGTTTCCTTATCCTTTCGTGCTAG: 1.59 z-score
TTAGGTTTCCTTTCCCCTTAGTGCTAG: 1.72 z-score
GACCGACTGGGTATCGGGACGTGCTAG: 0.476 z-score
GACGGTCTCCTTAGCCTGACGTGCTAG: -0.499 z-score
GTCGATTTCGGGACTGGAGACGTGCTA: 2.84 z-score
CTAGATATCGGGTTTCGATTAGTGCTA: 7.67 z-score
TCATTTACAGGTTCTCTTACTGTGCTA: 1.11 z-score
TTAGGACTGCTTATCCTCTAGTGCTAG: -0.316 z-score

Series 2
Target: CCNF, cyclin fold, Cln2 fusion (human)
Technique: yeast growth competition, sequencing
Medium: yeast
Setting: strong parent motif
Baseline: not given
Direction: higher = stronger binding
Measurement: normalised enrichment score
Parent: E2F3 docking peptide (human); PPAKRRLELGESG
E11A: 6.76
E8A: 5.73
P1A: 6.6
K4A: 5.27
P2A: 7.01
R5K: 3.67
L7A: 0.822

Series 3
Target: RNA binding protein fox-1 homolog 2, RRM domain, GST-SBP tag (RBFOX2, Homo sapiens, UniProt O43251-10, residues 100-194)
Technique: RNA Bind-n-Seq
Molecule type: RNA
Medium: in vitro
Tested at: 365 nM
Setting: natural RNA segment, single round, ends assumed
Baseline: no-protein control
Direction: higher = stronger binding
Measurement: RBNS enrichment (R)
Constant ends, left off below: GGGAGUUCUACAGUCCGACGAUC … UGGAAUUCUCGGGUGCCAA
Target sequence (chain): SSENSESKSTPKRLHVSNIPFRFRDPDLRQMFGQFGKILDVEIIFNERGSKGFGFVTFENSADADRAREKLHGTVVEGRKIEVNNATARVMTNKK
CAAUCCUCCCAAUAUGCUGGGAUUACAGGCAUGAGCCACCACCUGGCCCAAGCAAGAAAUUGACACUAUAUAGUUAUUUAAGGUAGUCAGGCAGUAGAAACAUUGCCAGA: 0.368
CAUCAGUCACCUUUGGGGUUGCCAUGUACAAUGAGAUUUAUAAUCAUGAUACUCUUCGGUGGUAGUUUCAAAAGACACUACUAAUACGCAGGAAGCGUUCCAGCUAUUUA: 0.296
GUUAGUACCUCUAGAAAUCAUGUGUCCUAGGAAUGGCAAGGAUGGAAAGAAAGUUGAAGACUGUUCUCUGGCUUCUCCUACCUAGGUACAGCAGACUGUAGUACCUCACA: 0.509
CUCUUGACUAUUUAGAUUCUAGUUAAAUAUCUGGAAUCCUAGCAGUCACUACAUUAUCUCAGCAGAGAGACUUUAAUUAAACUGAUUUGUUUCCAAUGUCGGGUUCACUU: 0.359
AAUGUGCAGCAGGAGGUCCUUUUCCUUCUCUACCUUCCUCUUCUCCCUUUCCCUGGGGCCAGAUCAGGACACAGCACAGGGCAGGAGGCCCUGCCUAGCUUAAAGUAUAG: 0.234
UCAUUGUCUGAUUAAAACAGUUUAUAUGUUGUUGUUAGCUCAUUUAAAGCUACAUCAUGCUGUAGUGUUGGCAUUUUUAGUUAAUAGGGCAUUGUCUUCCUUGUAUAUGU: 0.46
AAGCUGGAGAAUAAACAGGUACUGUGAUUGCUGGAAUAUUUCUGCAUAUACCUGAAGGUUAACACUCAGGAUACACAAACCUCUACAGACCUUAGAAUCCCAUCUCUAUU: 0.286
CUAAUACUCUUAACAUAGAUUAUGAAGUUAAGUGAAAUUUAUGGCUCUAACAGCAAAAUAAUUAAAGUGCCAUAGUUUCUCAAGUGACUAAAGUAGUUAUUAAAAUCAAG: 3.46

Single results of other studies
PhoQ, residues 284 288 289 292 302 303 AANNSF  fold induction (PhoP, residues 12 14 15 18 19 SYFRT (Escherichia coli, UniProt P23836); Sort-seq, refers to: YFP reporter; E. coli; PhoQ-PhoP variant library, added: 10 µM Mg2+; baseline: high Mg2+ state, higher = stronger signaling): 0.609
